Experimental data pooled from the literature.
Compare with care: the assays were run in different laboratories. Numbers after ± are the reported error.

CC(=O)Nc1ccc(O)cc1 has an EC20 of over 200 µM (mitochondrial swelling; BALB/cByJ female mouse liver mitochondria; 30 min, with: succinate + rotenone; relative to: CaCl2 maximal swelling).
For CC[C@@H]1C(=O)N(C)c2cnc(Nc3ccc(C(=O)N[C@H]4CC[C@H](N5CCN(CC6CC6)CC5)CC4)cc3OC)nc2N1C(C)C, the Vss was 4720 L (non-compartmental analysis; human, plasma; intravenous infusion, 400 mg (first infusion)).
For CC(C)C[C@H]1C(=O)N2CCC[C@H]2[C@]2(O)O[C@](NC(=O)[C@@H]3C=C4c5cccc6[nH]c(Br)c(c56)C[C@H]4N(C)C3)(C(C)C)C(=O)N12, the AUMC was 4460 ± 1460 µg·h²/L (Sprague-Dawley rat, male, plasma; intravenous, 0.1 mg/kg, with: DAL 1.7 mg/kg and HAL 0.7 mg/kg).
The tissue uptake of CCCC[C@@H]1NC(=O)[C@@H](NC(=O)[C@H](CCC(=O)O)NC(=O)CNC(=O)CN2CCN(CC(=O)O)CCN(CC(=O)O)CCN(CC(=O)O)CC2)CCCCNC(=O)C[C@@H](C(N)=O)NC(=O)[C@H](C(C)C)NC(=O)[C@@H]2CCCN2C(=O)[C@H](CCCNC(=N)N)NC(=O)CNC(=O)[C@H](Cc2c[nH]c3ccccc23)NC(=O)[C@H](CCCNC(=N)N)NC(=O)[C@@H](Cc2ccccc2)NC(=O)[C@H](Cc2c[nH]cn2)NC(=O)[C@H](CCC(=O)O)NC1=O [indium-111 labelled] is reported as 0.02 ± 0.01 %ID/g (normal C57 mice, brain; intravenous, 0.037 MBq, 2 h).
The Cmax of CO[C@H]1C[C@@H]2CC[C@@H](C)[C@@](O)(O2)C(=O)C(=O)N2CCCC[C@H]2C(=O)O[C@H]([C@H](C)C[C@@H]2CC[C@@H](O)[C@H](OC)C2)CC(=O)[C@H](C)/C=C(\C)[C@@H](O)[C@@H](OC)C(=O)[C@H](C)C[C@H](C)/C=C/C=C/C=C/1C is reported as 50.3 ng/mL (human, whole blood; oral, 15 mg, without grapefruit juice).
With CC(C)[C@H](NC(=O)[C@@H]1CCCN1C(=O)[C@H](CCCNC(=N)N)NC(=O)[C@H](CS)NC(=O)[C@H](Cc1c[nH]c2ccccc12)NC(=O)[C@H](CCCNC(=N)N)NC(=O)[C@@H](Cc1ccccc1)NC(=O)[C@H](Cc1c[nH]cn1)NC(=O)[C@H](CCC(=O)O)NC(=O)[C@H](CS)NC(=O)[C@H](CS)NC(=O)[C@H](CCCCN)NC(=O)[C@@H]1CC(=O)N[C@@H](CCCNC(=N)N)C(=O)N[C@@H]([C@@H](C)O)C(=O)N[C@@H](CC(=O)O)C(=O)N[C@H](Cc2ccc(O)cc2)C(=O)N1)C(N)=O [technetium-99m labelled] the uptake ratio was 0.03 (C57 mouse, female, B16/F1 melanoma; intravenous, 2 h, with: NDP-MSH 10 µg co-injected; relative to: tumour over kidneys).
With CC(C)NC(=O)COc1cccc(-c2nc(Nc3ccc4[nH]ncc4c3)c3ccccc3n2)c1 the Tmax was 1.21 h (male C57BL/6 mouse, plasma; oral, 100 mg/kg, one-compartment model).
The half-life range of Cn1c(-c2ccc(C(N)=O)cc2F)nnc1C(C)(C)Oc1c(F)cc(Cl)cc1F is reported as 738 to 1900 min (healthy young Japanese subjects, plasma; oral, 50 mg once daily, day 18, 14 days dosing).
Cc1ccc(NC(=O)c2ccc(CN3CCN(C)CC3)cc2)cc1Nc1nccc(-c2cncc(-c3oncc3C)c2)n1 has an AUC(0-tau) of 25400 ng·h/mL (healthy volunteers, plasma; oral, 25.0 mg once daily, day 7, 7-day dosing, mean).
For CC(C(=O)O)c1ccc(-c2ccccc2)c(F)c1 (stereo not drawn), the AUC(0-6 h) was 3870 ng·h/mL (human, dried blood spots; dose not given, prasugrel alone session).
With C#C[C@]1(CO)O[C@@H](n2cnc3c(N)nc(F)nc32)C[C@@H]1O the AUC(0-inf) was 4.3 µM·h (human, plasma; oral, 30 mg, single dose, fed).
With CO[C@H]1/C=C/O[C@@]2(C)Oc3c(C)c(O)c4c(O)c(c(/C=N/N5CCN(C)CC5)c(O)c4c3C2=O)NC(=O)/C(C)=C\C=C\[C@H](C)[C@H](O)[C@@H](C)[C@@H](O)[C@@H](C)[C@H](OC(C)=O)[C@@H]1C the EC20 was over 200 µM (cytochrome c release, ELISA; BALB/cByJ female mouse liver mitochondria; 30 min; relative to: alamethicin maximal release).
For CNC(=O)c1cc(Oc2ccc(NC(=O)Nc3ccc(Cl)c(C(F)(F)F)c3)cc2)ccn1, the t1/2 was 2830 ± 212 min (LC-MS/MS; nude mouse subcutaneous tumour model, tumour tissue; intratumoral, 2 mg/kg, PDC 1 miR-3609).
CCCC[C@H](NC(=O)CN1CCC(NC(=O)CN2CCN(CC(=O)O)CCN(CC(=O)O)CCN(CC(=O)O)CC2)CC1)C(=O)N[C@H]1CC(=O)NCCCC[C@@H](C(N)=O)N(C)C(=O)[C@H](Cc2c[nH]c3ccccc23)N(C)C(=O)[C@H](CCCNC(=N)N)N(C)C(=O)[C@@H](Cc2ccccc2)NC(=O)[C@H](Cc2c[nH]cn2)N(C)C1=O [gallium-68 labelled]: “tumour to tissue ratio” 4.19 ± 1.8 (C57BL/6J mice with B16-F10 melanoma, tumour over bone; intravenous, 1 h, with: MC1R inhibitor BMS 470539 0.5 mg co-injected).
With O=C(O)CCCC[C@@H]1SC[C@@H]2NC(=O)N[C@@H]21 the EC20 was over 400 µM (cytochrome c release, ELISA; BALB/cByJ female mouse liver mitochondria; 30 min; relative to: alamethicin maximal release).
